Published values gathered from unrelated publications.
Every numbered part comes from another study and shows a few of its results, in no order.
UniProt P51451, sequence (whole entry, looked up): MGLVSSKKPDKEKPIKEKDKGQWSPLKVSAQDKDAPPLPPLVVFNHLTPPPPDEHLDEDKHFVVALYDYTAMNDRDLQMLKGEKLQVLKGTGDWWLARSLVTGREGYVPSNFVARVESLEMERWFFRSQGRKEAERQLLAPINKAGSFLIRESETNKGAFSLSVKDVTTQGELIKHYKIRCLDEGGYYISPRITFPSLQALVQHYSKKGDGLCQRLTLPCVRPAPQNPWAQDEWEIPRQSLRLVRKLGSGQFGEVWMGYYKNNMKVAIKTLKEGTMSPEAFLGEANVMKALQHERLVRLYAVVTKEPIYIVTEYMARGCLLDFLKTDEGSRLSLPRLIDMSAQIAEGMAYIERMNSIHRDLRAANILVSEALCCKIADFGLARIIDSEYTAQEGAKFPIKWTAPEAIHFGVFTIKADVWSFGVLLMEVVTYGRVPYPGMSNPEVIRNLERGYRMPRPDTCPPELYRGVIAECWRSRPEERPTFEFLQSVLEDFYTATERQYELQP

Set 1
Target: Eukaryotic initiation factor 4A-I (EIF4A1, Homo sapiens, UniProt P60842, residues 1-406, full length assumed)
UniProt P60842, sequence (whole entry, looked up): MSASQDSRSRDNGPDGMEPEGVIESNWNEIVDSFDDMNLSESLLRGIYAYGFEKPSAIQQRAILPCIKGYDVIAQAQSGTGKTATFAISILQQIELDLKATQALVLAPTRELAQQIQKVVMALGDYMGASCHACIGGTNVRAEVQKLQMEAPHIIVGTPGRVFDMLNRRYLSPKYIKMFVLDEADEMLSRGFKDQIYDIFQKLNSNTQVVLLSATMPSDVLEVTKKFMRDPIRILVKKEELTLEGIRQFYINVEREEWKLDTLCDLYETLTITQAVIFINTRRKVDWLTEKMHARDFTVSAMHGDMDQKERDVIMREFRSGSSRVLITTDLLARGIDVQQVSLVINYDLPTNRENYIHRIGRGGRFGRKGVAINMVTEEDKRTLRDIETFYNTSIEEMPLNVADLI
Method: RNA Bind-n-Seq
Molecule type: RNA
Medium: in vitro
Tested at: 90 pmol
Notes: 4-mer, random 30-nt RNA, single round
Together with: 3 µM iPr-DMDA-PatA, 2 mM ADP, 2 mM phosphate
Relative to: input library
Reading: higher = stronger binding
Quantity: 4-mer enrichment
CUCC: 0.92 fold
CGAU: 1.13 fold
AUGG: 0.897 fold
CAUC: 0.979 fold
AACC: 1.19 fold
UGCG: 0.759 fold
GGCG: 0.629 fold
CACG: 0.941 fold

Set 2
Target: Phosphate system positive regulatory protein PHO4, full length, GST-tagged (PHO4, Saccharomyces cerevisiae, UniProt P07270, residues 1-312)
Method: competition protein-binding microarray
Molecule type: double-stranded DNA, one strand shown
Medium: in vitro
Tested at: 2 µM
Notes: whole 60-bp probe, lowest competitor level
Together with: Cbf1 competitor, 0.05 µM
Reading: higher = stronger binding
Quantity: fluorescence intensity
Constant ends, left off below: … GTCTTGATTCGCTTGACGCTGCTG
Residues (chain): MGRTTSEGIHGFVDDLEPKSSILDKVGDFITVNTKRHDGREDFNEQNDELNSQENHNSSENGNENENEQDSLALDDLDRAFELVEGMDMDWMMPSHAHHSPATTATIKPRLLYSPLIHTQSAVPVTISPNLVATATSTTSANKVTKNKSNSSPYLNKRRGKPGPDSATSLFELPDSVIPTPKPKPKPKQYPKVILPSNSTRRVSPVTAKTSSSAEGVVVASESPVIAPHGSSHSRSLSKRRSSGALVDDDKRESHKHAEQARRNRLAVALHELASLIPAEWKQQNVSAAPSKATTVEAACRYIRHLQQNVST
CCTAAGATGGGTCGGCACGTGTAATGAACTGAACGC: 17700 a.u.
CCGATTGGTTACAGTTCCGTGATGGGCAAGATTACT: 3910 a.u.
GGTGTAACATTCAGATGCGTGCGATATTTATTCTCT: 10200 a.u.
GACGCAGCGGGCTTGCTTGTGGACTGCTTGGTGGGG: 3740 a.u.
CTTTCCCGATCTTGGACCGTGGGTGTAGCACATTTG: 9600 a.u.
CTTGGGGTCTAGAAGCTCGTGTTCCATTCTTAGACA: 9140 a.u.
CACCGGATATTGAATCACATGGGCTTTCAGATTTCA: 9070 a.u.
GGCCCCTAGATCCTGCTCGTGAACGATGGACTCGGC: 4120 a.u.

Set 3
Target: Interferon regulatory factor 7, full length, phosphomimetic (IRF7, Homo sapiens, UniProt Q92985, residues 1-503, S101K/S471D/S472D/S475D/S476D/S477D/S483D/S484D/S487D)
UniProt Q92985, sequence (whole entry, unmodified, looked up): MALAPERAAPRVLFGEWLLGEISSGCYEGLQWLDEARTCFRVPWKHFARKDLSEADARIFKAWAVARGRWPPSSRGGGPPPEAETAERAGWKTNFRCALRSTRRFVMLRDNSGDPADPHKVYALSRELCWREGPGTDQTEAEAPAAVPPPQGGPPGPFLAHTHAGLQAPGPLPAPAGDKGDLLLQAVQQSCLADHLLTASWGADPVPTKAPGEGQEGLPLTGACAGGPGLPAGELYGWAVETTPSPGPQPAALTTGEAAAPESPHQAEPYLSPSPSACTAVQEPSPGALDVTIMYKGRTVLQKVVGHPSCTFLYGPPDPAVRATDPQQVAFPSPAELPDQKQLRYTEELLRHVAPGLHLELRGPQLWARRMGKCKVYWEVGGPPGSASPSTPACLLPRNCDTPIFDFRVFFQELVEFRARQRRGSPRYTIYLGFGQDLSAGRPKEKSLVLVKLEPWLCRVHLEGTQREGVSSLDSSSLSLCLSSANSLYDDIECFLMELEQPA
Method: protein-binding microarray
Molecule type: double-stranded DNA, one strand shown
Medium: in vitro
Tested at: 250 nM
Notes: 60-bp whole probe
Together with: salmon DNA 0.4 mg/ml
Relative to: random background probes
Reading: higher = stronger binding
Quantity: log fluorescence
Constant ends, left off below: GCCTAGCAC … GTCTTGATTCGCTTGACGCTGCTG
GAGGATTTCAGTATCGAGACGTGCTAG: -0.226 z-score
AGATCCATGCTCTGTCGCAGGGTGCTA: -0.263 z-score
TTAGAACTGAGACTGGATCAGTGCTAG: -0.0805 z-score
CTAGATTTCGGGACTGGATTAGTGCTA: 0.749 z-score
TCCATTTTTACCCTCCTTACGTGCTAG: 1.09 z-score
GACGGTATCAGTCTCGGGACGTGCTAG: -0.136 z-score
TCACATATTTATCTGCAACTGTGCTAG: 0.381 z-score
GACGGTTTCCATTTCCTGACGTGCTAG: 8.82 z-score

Further values, each from its own experiment
CCCC(=O)Oc1ccc2[nH]c(C(=O)c3cc4ccccc4[nH]3)cc2c1 — remaining activity (Tyrosine-protein kinase Blk (BLK, Homo sapiens, UniProt P51451); enzyme activity, inhibitor; 0.5 µM; relative to: control): 102%
